# Measured values of several laboratories.
# Numbered parts are unrelated; each lists some results of a single study.
# Sequence of UniProt Q92918 (whole entry, looked up): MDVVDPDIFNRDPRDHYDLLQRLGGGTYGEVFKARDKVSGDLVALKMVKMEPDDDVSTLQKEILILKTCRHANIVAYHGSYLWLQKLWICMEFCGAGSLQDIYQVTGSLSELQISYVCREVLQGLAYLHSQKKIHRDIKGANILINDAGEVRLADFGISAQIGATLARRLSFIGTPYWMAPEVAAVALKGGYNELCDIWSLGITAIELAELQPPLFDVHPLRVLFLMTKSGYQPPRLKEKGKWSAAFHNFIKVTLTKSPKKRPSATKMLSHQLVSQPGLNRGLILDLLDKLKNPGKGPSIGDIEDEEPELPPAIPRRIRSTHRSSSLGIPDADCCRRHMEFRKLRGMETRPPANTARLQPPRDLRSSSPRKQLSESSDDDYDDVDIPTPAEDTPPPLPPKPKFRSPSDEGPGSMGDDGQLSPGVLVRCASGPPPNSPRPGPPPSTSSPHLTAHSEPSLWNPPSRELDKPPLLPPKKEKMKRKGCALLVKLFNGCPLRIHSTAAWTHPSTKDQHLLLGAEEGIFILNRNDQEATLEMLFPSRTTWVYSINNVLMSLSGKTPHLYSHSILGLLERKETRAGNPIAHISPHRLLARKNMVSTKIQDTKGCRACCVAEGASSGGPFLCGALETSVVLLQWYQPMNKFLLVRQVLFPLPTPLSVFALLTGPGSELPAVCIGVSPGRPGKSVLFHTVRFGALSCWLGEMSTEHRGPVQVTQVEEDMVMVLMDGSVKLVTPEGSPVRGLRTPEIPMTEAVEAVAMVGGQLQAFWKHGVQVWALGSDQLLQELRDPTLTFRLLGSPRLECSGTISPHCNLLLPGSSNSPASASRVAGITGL
# Sequence of UniProt Q8IW41 (whole entry, looked up): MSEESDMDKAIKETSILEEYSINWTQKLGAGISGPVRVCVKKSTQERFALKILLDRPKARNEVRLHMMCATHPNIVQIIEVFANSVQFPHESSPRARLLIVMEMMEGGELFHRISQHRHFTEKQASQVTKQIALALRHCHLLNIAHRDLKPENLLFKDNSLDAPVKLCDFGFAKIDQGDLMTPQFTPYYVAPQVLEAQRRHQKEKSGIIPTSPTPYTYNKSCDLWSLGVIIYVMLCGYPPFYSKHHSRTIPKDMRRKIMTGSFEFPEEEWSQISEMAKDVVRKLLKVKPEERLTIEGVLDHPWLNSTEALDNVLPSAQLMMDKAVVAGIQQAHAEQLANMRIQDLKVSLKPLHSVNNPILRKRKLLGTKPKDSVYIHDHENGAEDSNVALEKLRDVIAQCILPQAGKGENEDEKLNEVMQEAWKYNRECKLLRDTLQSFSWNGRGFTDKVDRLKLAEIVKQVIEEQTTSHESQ
# Sequence of UniProt Q9H2X6 (whole entry, looked up): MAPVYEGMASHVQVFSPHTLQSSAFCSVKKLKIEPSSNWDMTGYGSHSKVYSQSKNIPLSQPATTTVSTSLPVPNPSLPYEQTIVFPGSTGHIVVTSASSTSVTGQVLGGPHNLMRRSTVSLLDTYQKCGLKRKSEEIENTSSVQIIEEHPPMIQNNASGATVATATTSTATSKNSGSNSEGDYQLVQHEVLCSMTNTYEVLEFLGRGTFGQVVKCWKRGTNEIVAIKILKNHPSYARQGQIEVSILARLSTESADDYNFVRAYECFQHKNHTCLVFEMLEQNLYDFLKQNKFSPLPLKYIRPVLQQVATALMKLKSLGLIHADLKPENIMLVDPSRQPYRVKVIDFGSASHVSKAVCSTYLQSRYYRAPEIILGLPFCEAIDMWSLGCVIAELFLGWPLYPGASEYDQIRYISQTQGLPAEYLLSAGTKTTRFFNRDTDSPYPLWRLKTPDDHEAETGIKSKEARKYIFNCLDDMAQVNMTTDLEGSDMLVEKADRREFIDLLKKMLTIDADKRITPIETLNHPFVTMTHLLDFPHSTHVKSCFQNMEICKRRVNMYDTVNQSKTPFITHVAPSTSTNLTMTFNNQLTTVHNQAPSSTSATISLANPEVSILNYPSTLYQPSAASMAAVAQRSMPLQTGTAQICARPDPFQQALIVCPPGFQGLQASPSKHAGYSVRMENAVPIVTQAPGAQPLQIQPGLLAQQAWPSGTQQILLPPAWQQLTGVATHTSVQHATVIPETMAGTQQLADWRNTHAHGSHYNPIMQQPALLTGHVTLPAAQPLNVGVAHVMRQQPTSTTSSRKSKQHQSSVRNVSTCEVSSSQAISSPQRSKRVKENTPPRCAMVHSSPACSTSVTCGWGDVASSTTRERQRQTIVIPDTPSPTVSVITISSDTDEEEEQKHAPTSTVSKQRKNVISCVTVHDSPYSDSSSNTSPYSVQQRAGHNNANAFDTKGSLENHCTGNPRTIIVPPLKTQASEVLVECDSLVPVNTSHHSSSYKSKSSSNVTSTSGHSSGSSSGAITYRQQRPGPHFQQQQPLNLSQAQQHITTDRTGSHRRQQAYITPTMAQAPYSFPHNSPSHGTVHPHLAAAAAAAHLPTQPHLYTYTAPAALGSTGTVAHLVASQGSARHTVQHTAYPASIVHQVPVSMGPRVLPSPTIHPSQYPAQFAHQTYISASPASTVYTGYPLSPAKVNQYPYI
# Sequence of UniProt Q15759 (whole entry, looked up): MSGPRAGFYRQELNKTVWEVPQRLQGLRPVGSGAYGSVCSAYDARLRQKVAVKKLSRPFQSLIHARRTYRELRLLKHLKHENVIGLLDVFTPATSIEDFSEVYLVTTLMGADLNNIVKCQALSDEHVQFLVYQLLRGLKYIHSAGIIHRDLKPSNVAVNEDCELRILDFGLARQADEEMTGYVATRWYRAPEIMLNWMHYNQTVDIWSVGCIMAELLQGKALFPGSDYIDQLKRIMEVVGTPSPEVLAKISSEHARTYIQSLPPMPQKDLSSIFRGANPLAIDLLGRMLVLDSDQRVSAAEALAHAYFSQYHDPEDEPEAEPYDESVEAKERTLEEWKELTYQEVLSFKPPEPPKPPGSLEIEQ
# Sequence of UniProt P06241 (whole entry, looked up): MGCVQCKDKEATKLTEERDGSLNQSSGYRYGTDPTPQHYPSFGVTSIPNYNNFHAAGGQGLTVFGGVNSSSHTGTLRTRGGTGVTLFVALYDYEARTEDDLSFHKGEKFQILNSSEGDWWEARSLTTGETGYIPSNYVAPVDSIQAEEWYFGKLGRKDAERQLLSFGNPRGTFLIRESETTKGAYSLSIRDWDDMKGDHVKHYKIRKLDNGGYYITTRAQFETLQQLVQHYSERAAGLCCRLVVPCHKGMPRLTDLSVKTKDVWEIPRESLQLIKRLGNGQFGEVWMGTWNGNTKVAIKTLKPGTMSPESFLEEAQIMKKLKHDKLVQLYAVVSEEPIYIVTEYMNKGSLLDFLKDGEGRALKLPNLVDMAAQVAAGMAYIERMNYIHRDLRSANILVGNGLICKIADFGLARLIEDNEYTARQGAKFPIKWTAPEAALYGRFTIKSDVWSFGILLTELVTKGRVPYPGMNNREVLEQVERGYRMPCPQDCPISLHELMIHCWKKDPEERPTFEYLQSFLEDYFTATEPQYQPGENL
# Sequence of UniProt Q15303 (whole entry, looked up): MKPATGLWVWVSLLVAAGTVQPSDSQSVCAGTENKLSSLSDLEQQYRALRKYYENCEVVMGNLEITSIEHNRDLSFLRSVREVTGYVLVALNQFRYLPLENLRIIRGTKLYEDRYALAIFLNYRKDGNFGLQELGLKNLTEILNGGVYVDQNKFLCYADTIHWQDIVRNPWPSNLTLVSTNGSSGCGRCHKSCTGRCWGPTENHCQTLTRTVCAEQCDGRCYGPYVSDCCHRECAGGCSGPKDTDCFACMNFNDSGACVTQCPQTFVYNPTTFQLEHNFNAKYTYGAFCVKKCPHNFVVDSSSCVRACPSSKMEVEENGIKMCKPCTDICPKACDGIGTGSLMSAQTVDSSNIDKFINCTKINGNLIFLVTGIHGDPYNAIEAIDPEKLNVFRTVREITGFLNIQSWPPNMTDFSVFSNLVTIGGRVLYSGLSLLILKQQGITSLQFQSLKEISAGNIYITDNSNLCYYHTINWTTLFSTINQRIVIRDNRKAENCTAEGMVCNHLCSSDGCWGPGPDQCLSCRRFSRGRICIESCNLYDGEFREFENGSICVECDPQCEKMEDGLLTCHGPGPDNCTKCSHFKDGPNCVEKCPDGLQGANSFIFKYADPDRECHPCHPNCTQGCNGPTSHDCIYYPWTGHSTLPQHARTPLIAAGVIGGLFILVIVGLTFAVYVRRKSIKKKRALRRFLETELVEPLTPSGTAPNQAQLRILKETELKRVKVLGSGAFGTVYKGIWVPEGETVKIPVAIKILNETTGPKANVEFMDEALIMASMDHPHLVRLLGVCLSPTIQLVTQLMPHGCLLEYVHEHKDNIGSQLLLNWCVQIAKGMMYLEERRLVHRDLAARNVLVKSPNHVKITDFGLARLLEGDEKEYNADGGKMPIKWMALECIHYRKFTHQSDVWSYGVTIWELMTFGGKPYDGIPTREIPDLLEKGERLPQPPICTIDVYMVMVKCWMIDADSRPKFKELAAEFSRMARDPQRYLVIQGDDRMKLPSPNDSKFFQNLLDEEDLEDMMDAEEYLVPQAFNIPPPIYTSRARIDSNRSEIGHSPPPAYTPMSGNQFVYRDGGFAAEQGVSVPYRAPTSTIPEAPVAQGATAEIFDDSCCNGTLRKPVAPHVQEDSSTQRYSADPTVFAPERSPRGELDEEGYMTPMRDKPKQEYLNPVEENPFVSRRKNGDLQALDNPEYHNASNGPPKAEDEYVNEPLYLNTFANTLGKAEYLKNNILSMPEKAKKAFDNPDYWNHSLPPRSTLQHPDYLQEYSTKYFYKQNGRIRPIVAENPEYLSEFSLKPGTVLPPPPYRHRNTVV
# Sequence of UniProt P11802 (whole entry, looked up): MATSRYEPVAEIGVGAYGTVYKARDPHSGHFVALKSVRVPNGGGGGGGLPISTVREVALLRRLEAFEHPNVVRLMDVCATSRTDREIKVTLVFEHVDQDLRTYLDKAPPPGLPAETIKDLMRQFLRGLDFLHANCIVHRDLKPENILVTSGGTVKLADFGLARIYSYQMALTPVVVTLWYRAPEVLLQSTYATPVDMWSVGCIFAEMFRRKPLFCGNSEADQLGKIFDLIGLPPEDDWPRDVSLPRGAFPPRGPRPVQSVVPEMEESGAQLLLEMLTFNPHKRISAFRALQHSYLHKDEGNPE

# Study 1 — method: protein-binding microarray; form: double-stranded DNA, one strand shown; sample: in vitro; concentration: not given; reading: higher = stronger binding
# Target: Protein C-ets-1 (ETS1, Homo sapiens, UniProt P14921, residues 1-441, K379A, full length assumed)
# Notes: k-mer, scored over probes, only values ≥0.25
# Target sequence (chain): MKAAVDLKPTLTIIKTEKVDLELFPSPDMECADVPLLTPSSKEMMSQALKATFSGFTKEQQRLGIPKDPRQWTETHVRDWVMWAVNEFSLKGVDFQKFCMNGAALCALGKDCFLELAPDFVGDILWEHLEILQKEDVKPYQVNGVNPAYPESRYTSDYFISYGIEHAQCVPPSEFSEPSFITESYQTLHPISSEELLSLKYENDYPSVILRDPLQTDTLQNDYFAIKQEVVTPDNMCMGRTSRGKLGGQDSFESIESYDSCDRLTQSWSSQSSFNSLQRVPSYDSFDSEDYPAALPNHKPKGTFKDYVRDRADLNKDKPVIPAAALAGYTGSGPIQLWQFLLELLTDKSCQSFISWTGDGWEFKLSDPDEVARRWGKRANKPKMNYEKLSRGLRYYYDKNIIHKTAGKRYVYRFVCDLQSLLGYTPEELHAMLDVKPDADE
Strand,E-score
TAACCACA,0.261
CGACAACA,0.278
CGTGTGTA,0.302
AACCTTTA,0.257
AGCCGGAA,0.341
ATCGGTTA,0.265
ATCCGTTG,0.279
CGGTAACA,0.327

# Study 2 — effect on: enzyme activity; action: inhibitor; concentration: 0.5 µM; relative to: control
# SMILES: CN1CCN(c2ccc3nc(-c4c(N)c5c(F)cccc5[nH]c4=O)[nH]c3c2)CC1
target,remaining activity [%]
"Ephrin type-A receptor 4 (EPHA4, Homo sapiens, UniProt P54764)",93.4
"Homeodomain-interacting protein kinase 2 (HIPK2, Homo sapiens, UniProt Q9H2X6)",81.5
"Serine/threonine-protein kinase 17A (STK17A, Homo sapiens, UniProt Q9UEE5)",68
"Cyclin-dependent kinase 4, with cyclin D3 (CDK4, Homo sapiens, UniProt P11802)",89.6

# Study 3 — effect on: cell-free assay; method: competition with immobilised ligand; concentration: 0.1 µM
# Compound: Cc1c[nH]c2nccc(Oc3c(F)cc(Nc4cc(Cl)nc(N)n4)cc3F)c12
target,remaining binding [%]
"Serine/threonine-protein kinase PAK 6 (PAK6, Homo sapiens, UniProt Q9NQU5)",82
"Serine/threonine-protein kinase Sgk3 (SGK3, Homo sapiens, UniProt Q96BR1)",88
"Cyclin-dependent kinase 16 (CDK16, Homo sapiens, UniProt Q00536)",99
"Myosin light chain kinase, smooth muscle (MYLK, Homo sapiens, UniProt Q15746)",80
"Tyrosine-protein kinase ABL1, non-phosphorylated (ABL1, Homo sapiens, UniProt P00519, Q252H)",85
"Serine/threonine-protein kinase Nek2 (NEK2, Homo sapiens, UniProt P51955)",97
"Ribosomal protein S6 kinase alpha-3, N-terminal kinase domain (RPS6KA3, Homo sapiens, UniProt P51812)",79
"MAP kinase-activated protein kinase 5 (MAPKAPK5, Homo sapiens, UniProt Q8IW41)",81
"Phosphatidylinositol 4,5-bisphosphate 3-kinase catalytic subunit alpha isoform (PIK3CA, Homo sapiens, UniProt P42336, E542K)",85
"Tyrosine-protein kinase Fyn (FYN, Homo sapiens, UniProt P06241)",100
"Fibroblast growth factor receptor 4 (FGFR4, Homo sapiens, UniProt P22455)",100
"Mitogen-activated protein kinase kinase kinase kinase 1 (MAP4K1, Homo sapiens, UniProt Q92918)",73
"Cyclin-dependent kinase 18 (CDK18, Homo sapiens, UniProt Q07002)",100
"Receptor tyrosine-protein kinase erbB-4 (ERBB4, Homo sapiens, UniProt Q15303)",100
"Receptor-type tyrosine-protein kinase FLT3 (FLT3, Homo sapiens, UniProt P36888, K663Q)",87
"Mitogen-activated protein kinase 11 (MAPK11, Homo sapiens, UniProt Q15759)",97

# Study 4 — method: aptamer microarray, sandwich; form: DNA with 2'F-ANA; sample: in vitro; concentration: 200 nM; added: Cy3 exosite-II aptamer, 400 nM; reading: higher = stronger binding; strand: GGTTGGTGTGGTTGG
# Target: Prothrombin, mature alpha-thrombin (F2, Homo sapiens, UniProt P00734)
# Notes: whole 15-mer aptamer, many near background
Modification,mean fluorescence intensity [a.u.]
2'F-ANA at 1 4 6 9 10 12,58
2'F-ANA at 1 3 4 5 6 10 11 14 15,57.4
2'F-ANA at 1 2 3 4 5 7 9 10 11 13 14,50.4
2'F-ANA at 1 4 5 6 10 12 13 15,45
2'F-ANA at 1 2 3 5 6 10 11 15,49.4
2'F-ANA at 2 4 5 7 8 9 10 11,57.7
2'F-ANA at 1 2 3 4 5 7 9 10 11 12,56.1
2'F-ANA at 1 3 8 10 11 13 15,73.3

# For quick reference, copied from above (study 3):
target,remaining binding [%]
"Ribosomal protein S6 kinase alpha-3, N-terminal kinase domain (RPS6KA3, Homo sapiens, UniProt P51812)",79
"MAP kinase-activated protein kinase 5 (MAPKAPK5, Homo sapiens, UniProt Q8IW41)",81
